Measurements from different studies.
Numbered parts are unrelated; each lists some results of a single study. Changes are numbered by the printed parent chain.

Series 1 — method: RNA Bind-n-Seq; molecule type: RNA; medium: in vitro; tested at: 1 µM; setting: whole 134-nt RNA, ends assumed; with: 150 mM KCl; baseline: input library; reading: higher = stronger binding; measurement: log2 enrichment
Target: Ras GTPase-activating protein-binding protein 1, C-terminal RGG region (G3BP1, Homo sapiens, UniProt Q13283)
Chain of UniProt Q13283 (whole entry, looked up): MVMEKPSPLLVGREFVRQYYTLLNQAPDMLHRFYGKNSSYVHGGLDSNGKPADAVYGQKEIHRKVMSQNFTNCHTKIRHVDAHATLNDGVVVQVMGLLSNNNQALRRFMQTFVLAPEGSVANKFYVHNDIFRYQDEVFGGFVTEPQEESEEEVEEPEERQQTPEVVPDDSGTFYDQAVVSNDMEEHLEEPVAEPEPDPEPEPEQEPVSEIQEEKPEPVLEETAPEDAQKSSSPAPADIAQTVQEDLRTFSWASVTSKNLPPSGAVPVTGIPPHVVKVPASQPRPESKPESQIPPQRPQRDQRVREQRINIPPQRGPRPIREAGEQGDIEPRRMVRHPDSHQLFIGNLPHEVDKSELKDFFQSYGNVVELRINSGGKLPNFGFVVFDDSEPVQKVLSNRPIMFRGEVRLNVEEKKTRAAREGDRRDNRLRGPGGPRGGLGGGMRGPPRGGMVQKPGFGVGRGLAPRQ
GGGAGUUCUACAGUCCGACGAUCUCAAGUCCUGUGCUACACAUCGUAUGUACCGAAUCGGAAAGGAAAGGAAAGGGGAAAGUAUUAUGUUACGCCGUUCGGAUCUGCACUUCCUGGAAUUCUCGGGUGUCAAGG: -1.37
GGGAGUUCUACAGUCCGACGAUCACAAUGCAGGUGGGCAUCUUUGGGAAGUGGGGCAAGGGGGGGAUAGGGAGGGGGGUAACACUUUGGGAACAGGUGGUCCCAGGUCGUUUCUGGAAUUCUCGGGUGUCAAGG: -1.14
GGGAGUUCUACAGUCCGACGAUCCAAGUCCUGUGCUACACAUCGUAUGUACCGAAUCGGUUUGGUUUUUGGUUUUUGGAAAGUAUUAUGUUACGCCGUUCGGAUCUGCACUUCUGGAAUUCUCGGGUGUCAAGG: -1.4
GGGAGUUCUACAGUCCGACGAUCUUACUACCUCCGCCUUCAUUUCCGUCAGCAAUCCCGGCGCGGGCUCCCCGGCCCCCGCCAGCCCGCCUCCCCUCGCUGUGCCCGGGACCGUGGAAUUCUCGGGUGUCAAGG: -0.12
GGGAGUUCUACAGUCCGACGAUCUAACUUUAGAGGAGGAUCUGAUGGAUAUGACAGUGGACGUGGAUUUGGGGAUGGCUAUAAUGGGUAUGGAGGAGGACCUGGAGGUGGCAAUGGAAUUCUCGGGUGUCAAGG: -1.56
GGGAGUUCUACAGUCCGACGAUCACCAUGCAGGUGGGCAUCUUUGGGAAGUGGGGCAAGGGGGGGAUAGGGAGGGGGGUAACACUUGGGGAACAGGUGGUCCCAGGUCGUUUCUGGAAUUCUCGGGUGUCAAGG: 2.48
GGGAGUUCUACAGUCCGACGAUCCUGUGCUACACAUCGUAUGUACCGAAUCGGGAAAAAAAGGGGAAAAAAAGGAAAAAAAGGGAAAGUAUUAUGUUACGCCGUUCGGAUCUGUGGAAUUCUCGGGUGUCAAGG: -1.57
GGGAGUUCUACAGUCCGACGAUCGCAGGAAGUAAAAACAAAUGGAAAUGCUUCGGUUAGUGGCAGGGGUGGGGGUUGCUAAGGAAAGGGUGGGAUGGGAGUGGGUAAAGAGUUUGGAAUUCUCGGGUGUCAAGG: 1.41
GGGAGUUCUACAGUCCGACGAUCUAACUUUAGAGGAGGAUCUGAUGGAUAUGGCAGUGGACUUGGAUUUGGGGAUGGCUAUAAUGGGUAUGGAGGAGGACCUGGAGGUGGCAAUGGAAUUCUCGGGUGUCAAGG: -1.16

Series 2 — target: CCNB1, cyclin fold, Cln2 fusion (human); method: yeast growth competition, sequencing; medium: yeast; setting: weak parent motif; baseline: not given; reading: higher = stronger binding; measurement: normalised enrichment score
Parent: E2F2 docking peptide (human); LPAKRKLDLEGIG
LPAKRKADLEGIG [L7A]: 0.283
LPAKRKLDLEGAG [I12A]: -0.00245
LPAKRKLDLAGIG [E10A]: 0.682
LPAKRALDLEGIG [K6A]: 0.199
LPAKRKLALEGIG [D8A]: 0.0131
LPAKKKLDLEGIG [R5K]: 0.0428
LPAKRKLDLEAIG [G11A]: -0.271

Series 3 — method: RNA Bind-n-Seq; molecule type: RNA; medium: in vitro; tested at: not given; baseline: input RNA pool; reading: higher = stronger binding; measurement: bound/input enrichment
Target: RING finger protein unkempt homolog, zinc fingers 1-6, GST-SBP tag (UNK, Homo sapiens, UniProt Q9C0B0, residues 30-357)
Chain of UniProt Q9C0B0 (30-357, looked up): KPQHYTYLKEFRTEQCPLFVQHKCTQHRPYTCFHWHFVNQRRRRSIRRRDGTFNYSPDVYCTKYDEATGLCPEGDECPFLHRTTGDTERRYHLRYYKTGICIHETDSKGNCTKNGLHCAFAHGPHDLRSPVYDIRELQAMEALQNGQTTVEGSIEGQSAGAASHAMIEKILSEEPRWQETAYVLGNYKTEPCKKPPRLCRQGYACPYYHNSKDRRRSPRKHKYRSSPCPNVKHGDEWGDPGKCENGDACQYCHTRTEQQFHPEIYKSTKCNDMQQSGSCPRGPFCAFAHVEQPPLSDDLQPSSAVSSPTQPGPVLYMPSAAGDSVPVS
Setting: RNA with constant flanks, human and mouse sites, ends assumed
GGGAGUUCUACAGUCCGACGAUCUUUUUGCACCUGAAAAAGGCAGCCAUAGUUUUCCAGAAGCAACUCAGAGGUCAGAUUGCUCGGAGAGUUUACAGACAAUUGCUGGCAGAGAAAAGGGAGCAAGAAGAAAAGAAGAAACAGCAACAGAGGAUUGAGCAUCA: 0.248 ratio
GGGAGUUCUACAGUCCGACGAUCGCUAGAAAUGUGAGUACUUUAGAAAAAUCAGUUUUAGUGCCAAAUAAGGAAGCUGCUCUAGUGGUGACAUCUAAGAGGAGACCUACAAAGAAGUCUGCAGAGGAAAGCUCAAAAGAUCCACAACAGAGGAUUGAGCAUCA: 1.59 ratio
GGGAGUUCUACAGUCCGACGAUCCACACUGCUGCUAUGGAUAUGCUGGGAGGACCUGGUAUCGAAAGCCAGUGUAGAAAAGUUGAUAUCAUUGCAGAUGCAGCAUAUUCCAUUUUCCAAAAGCCAAAAAGUUUUACUGGCAACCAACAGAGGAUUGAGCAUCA: 0.155 ratio
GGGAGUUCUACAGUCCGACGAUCUUGCUGUCCAAAAUUGAUGGCGUGGAGCAGCUAAACAACAUCCUAGUCAUUGGAAUGACCAAUAGACCAGAUCUGAUAGAUGAGGCUCUUCUUAGACCUGGAAGACUGGAAGUUAAAAUGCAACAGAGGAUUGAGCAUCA: 0.235 ratio
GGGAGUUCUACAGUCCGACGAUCGGAUAUUUCACAAAACCUCCGAUUGCAGCUCAUGCUUCAAGAUCUGCAGAAUCUAAGACUAUAGAAUUUGGGAAAACUAAUUUUGUUCAGCCCAUGCCGGGUGAAGGAUUAAGGCCAUCUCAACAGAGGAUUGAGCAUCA: 0.322 ratio
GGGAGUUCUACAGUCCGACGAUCAAUAUAUUCUUAAAAAUAUGCUUGUUGAUGCUGUCUAAGGAACCAAUGUAUUCAGUAUACCACCCUGAAGUUGUGAUUUAAAAUACUUUAUGUUUUGUGAAAUGAAAAUAAGCAUUUGGGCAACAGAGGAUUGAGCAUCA: 0.136 ratio
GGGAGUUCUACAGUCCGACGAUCGGUGGGACAGAAAAGACAUUGCAGUAUGAAGGAAGGCUUUGGUUUGCUCAAAGUGCCAGGUGUAGGGAUGAACCUCUGACGGGCUUUCUGCCCAAGAGAUGAGAUGAGAGCCUCCUCACCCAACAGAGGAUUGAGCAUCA: 0.345 ratio
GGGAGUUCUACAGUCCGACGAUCGACCGCCUGGUAGCCUUUCCUACUCGAGUAGCAGGUGGAAUUGGAAUCACCUGUUGGAUUUUAGUCUGUAACAAAGUUGUGGCUAUCGUUCUCCACCCUUUCAGCUGAGGGGAAGGCCAGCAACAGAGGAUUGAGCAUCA: 0.374 ratio

Series 4 — method: RNA Bind-n-Seq; molecule type: RNA; medium: in vitro; tested at: 365 nM; baseline: no-protein control; reading: higher = stronger binding; measurement: RBNS enrichment (R)
Target: RNA binding protein fox-1 homolog 2, RRM domain, GST-SBP tag (RBFOX2, Homo sapiens, UniProt O43251-10, residues 100-194)
Setting: natural RNA segment, single round, ends assumed
Residues (chain): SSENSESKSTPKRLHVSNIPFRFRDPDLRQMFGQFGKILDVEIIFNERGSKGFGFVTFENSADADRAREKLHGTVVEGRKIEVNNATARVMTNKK
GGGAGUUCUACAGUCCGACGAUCGUAAAGAAUGUUUGUACUGUUCCAAAACCCAGGCUUCUUUAUUCCUUUACCACUAUCCAUGUGAGCAUUGACAAAUCAUGGCUUAGAGGUGCUCACUGACUCGCUAAGACUGGAAUUCUCGGGUGCCAA: 0.269
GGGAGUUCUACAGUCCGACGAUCUCCCUUGUGUCUGGAGUAUUCUGUCAUCUGCAAGCCCUGUUCUUACCUCACCUGUCCACGUUCACCACAGGCCACUUGAGCACGUGGCACCUAUCUGAGCUCUACUCAGUUGGAAUUCUCGGGUGCCAA: 0.666
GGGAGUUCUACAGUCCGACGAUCGGUCAAUAAGUUGUAAUCUUGAUAGUAAAGGUGGAAAACUUAUUAUAAAUGGAAAGAAAGUUUUAUUUCCUUUUUUGUUUGAUGGGCAGUAUGCCAUAUUAUACCCAAAGUGGAAUUCUCGGGUGCCAA: 0.5
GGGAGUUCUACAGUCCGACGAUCUACCAACAAAACUCCAGGUUGAGACUCUCUAGUCUUGCCAGGGCCCACUGAGAGCUCCCAGACUCAGUACAUCUCUCCCUCGUUUAAAACACCUUUUUCUAAACACUUUCUGGAAUUCUCGGGUGCCAA: 0.984
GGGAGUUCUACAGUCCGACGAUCCUGUGUAGUGAGGGAUACUGAGGGCAGUCCUGUGGCUGAGGGGCACAGAUUGAACUGCUGAACUAGUUGGAGGUCUAGAUGAGGUGCUUUACGCAUCAGCUGCCUUAGACUGGAAUUCUCGGGUGCCAA: 0.685
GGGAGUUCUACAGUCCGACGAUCAAACAAACCCCUUUUUGGUACCUGCACUGCAUCCCUCGGGUGGGGCAGUGCCUACUUUGGAAGAUGCUGCAGCCUGCGAGGGGAUCUGCUGGGGCUUCCCCUUCGCCACAUGGAAUUCUCGGGUGCCAA: 0.574
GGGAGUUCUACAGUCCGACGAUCGAGAAGUUUGCCUUGGCAGCAAGUAUUUAUUGUUGACAUUAUUCAGAAUUAGUGAUAAUAAAAAGCAGAGUGAUUUUGGUCAAUUUUAUUAUUAAUUCUUAAAUUCCCUGUGGAAUUCUCGGGUGCCAA: 0.294
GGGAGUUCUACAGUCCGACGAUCUGGUGGUAGAUGUAUGUAAAUUAGAAGUUUGAAUGGGACAGGAUGAGAGUUCGAGGCUCUUUGUUUGGUAUCUUUUGUGUUAAUGUGUCUUGAAUCUGCCAAUCUGUAUGUGGAAUUCUCGGGUGCCAA: 3

Excerpt of the above (series 2):
LPAKRKLDLEAIG [G11A]: -0.271
LPAKRKLDLEGAG [I12A]: -0.00245
LPAKRKLDLAGIG [E10A]: 0.682
LPAKRKADLEGIG [L7A]: 0.283
